Measurements collected from several papers.
Parts stem from different laboratories: compare values within a part only. Changes are numbered by the printed parent chain.

Set 1 — target: FOSB, bZIP domain (human); technique: DHFR protein complementation; sample: yeast; baseline: wild-type JUN-FOS pair; reading: higher = stronger binding; quantity: binding fitness
Notes: single substitutions, most at no-binding floor
Parent: JUN, bZIP domain (human); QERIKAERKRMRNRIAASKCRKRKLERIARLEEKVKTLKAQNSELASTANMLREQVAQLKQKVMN; partner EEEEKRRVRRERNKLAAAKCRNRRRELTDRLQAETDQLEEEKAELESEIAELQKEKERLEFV
T48R: 0.048 natural log
K36T: -0.241 natural log
E54H: -0.203 natural log
R53N: -0.962 natural log
E44K: -0.0354 natural log
A40L: -0.133 natural log
E54G: -0.146 natural log
V35A: -0.263 natural log
A57Q: -0.199 natural log
E33M: -0.161 natural log

Set 2 — target: CCNE1, cyclin fold, Cln2 fusion (human); technique: yeast growth competition, sequencing; sample: yeast; notes: strong parent motif; baseline: not given; reading: higher = stronger binding; quantity: normalised enrichment score
Parent: RBL1 docking peptide (human); GSAKRRLFGEDPP
GSAKRRLFGEDHP [P12H]: 6.11
GSAKCRLFGEDPP [R5C]: 0.58
GSAKRRMFGEDPP [L7M]: 0.999
GSYKRRLFGEDPP [A3Y]: 5.29
GSAFRRLFGEDPP [K4F]: 3
GSAKRRYFGEDPP [L7Y]: 0.028
GPAKRRLFGEDPP [S2P]: 4.53
GSAKRRLFGEDRP [P12R]: 5.68
GSAKRRLFGEWPP [D11W]: 4.3
GSATRRLFGEDPP [K4T]: 3.58

Set 3 — technique: protein-binding microarray; molecule type: double-stranded DNA, one strand shown; sample: in vitro; tested at: 0.8 µM; notes: whole 60-bp probe, no competitor; reading: higher = stronger binding; quantity: fluorescence intensity
Target: Centromere-binding protein 1, full length, N-terminal tag (CBF1, Saccharomyces cerevisiae, UniProt P17106, residues 1-351)
Sequence of UniProt P17106 (whole entry, looked up): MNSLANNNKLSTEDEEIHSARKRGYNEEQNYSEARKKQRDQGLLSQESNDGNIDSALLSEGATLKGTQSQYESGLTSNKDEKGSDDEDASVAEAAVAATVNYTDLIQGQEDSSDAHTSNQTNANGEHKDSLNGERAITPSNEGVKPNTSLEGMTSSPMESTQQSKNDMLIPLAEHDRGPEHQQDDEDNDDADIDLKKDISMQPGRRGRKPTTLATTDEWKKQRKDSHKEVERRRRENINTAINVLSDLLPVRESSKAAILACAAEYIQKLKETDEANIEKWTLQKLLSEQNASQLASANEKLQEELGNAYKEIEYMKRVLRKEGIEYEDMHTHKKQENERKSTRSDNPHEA
TGTACGAAGCTATCGCACGCATCTATAGTAGTTAGGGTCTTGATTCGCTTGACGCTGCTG: 527 a.u.
CTAATTAGATTCCCTGATGTTCACATATGGGGATTCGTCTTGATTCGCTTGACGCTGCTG: 504 a.u.
GAACGATTATATACTAACATCATGTACAAAACATAGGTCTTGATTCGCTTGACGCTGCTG: 557 a.u.
GAAGGGCATGTCTCACACACCACCGCCTTCCACTAGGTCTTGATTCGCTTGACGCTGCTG: 526 a.u.
GAATTTAAGACGAATGGTGTGAAATCGGAAATTTAGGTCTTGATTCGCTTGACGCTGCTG: 553 a.u.
GAAAGGTTGATGAATCTGGTGATGCAGGGGTATTAGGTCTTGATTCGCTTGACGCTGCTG: 543 a.u.
CTATCTATTGATCTCTTCGTGATGCCCGGTTATTTCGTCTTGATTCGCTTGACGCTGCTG: 536 a.u.
GAAAGGACCACCCCACGTGCCAGAATTGTTTCATAGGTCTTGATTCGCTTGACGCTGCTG: 4780 a.u.
GAAACCGGTTTGCAACACATGAATGGCGCACATTAGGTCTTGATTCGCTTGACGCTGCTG: 502 a.u.
GAATTCTCTTTTCATCATGATTTGAGTGTACTATAGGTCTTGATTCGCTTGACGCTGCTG: 502 a.u.
CTATATAGTGATCGTGGTCATAAATTAATAAAATTCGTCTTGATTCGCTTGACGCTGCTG: 610 a.u.
GAATTCCATAAAGAGCACGTGCGGGCGCGCTGGTAGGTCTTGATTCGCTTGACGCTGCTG: 9750 a.u.
GAAGTCCGGGATGTCCACGCACGGCAATGGCCATAGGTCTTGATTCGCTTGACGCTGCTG: 509 a.u.

Mixed results
PhoQ, residues 284 288 289 292 302 303 GNNTDL
fold induction (PhoP, residues 12 14 15 18 19 HEGLL (Escherichia coli, UniProt P23836); Sort-seq, refers to: YFP reporter; E. coli; PhoQ-PhoP variant library, together with: 10 µM Mg2+; baseline: high Mg2+ state, higher = stronger signaling): 3.07

For quick reference, copied from above (set 2):
GSAKCRLFGEDPP [R5C]: 0.58
GSAKRRMFGEDPP [L7M]: 0.999
GSYKRRLFGEDPP [A3Y]: 5.29
GSAFRRLFGEDPP [K4F]: 3
GSAKRRYFGEDPP [L7Y]: 0.028
